Results pooled from the literature.
Compare with care: the assays were run in different laboratories. Values joined by “and” are separate records of one study, mostly repeats; a detail may differ. ± marks the error that the study gave. Converted amounts (≈) assume the structure as drawn.
Chain of UniProt P39656 (whole entry, looked up): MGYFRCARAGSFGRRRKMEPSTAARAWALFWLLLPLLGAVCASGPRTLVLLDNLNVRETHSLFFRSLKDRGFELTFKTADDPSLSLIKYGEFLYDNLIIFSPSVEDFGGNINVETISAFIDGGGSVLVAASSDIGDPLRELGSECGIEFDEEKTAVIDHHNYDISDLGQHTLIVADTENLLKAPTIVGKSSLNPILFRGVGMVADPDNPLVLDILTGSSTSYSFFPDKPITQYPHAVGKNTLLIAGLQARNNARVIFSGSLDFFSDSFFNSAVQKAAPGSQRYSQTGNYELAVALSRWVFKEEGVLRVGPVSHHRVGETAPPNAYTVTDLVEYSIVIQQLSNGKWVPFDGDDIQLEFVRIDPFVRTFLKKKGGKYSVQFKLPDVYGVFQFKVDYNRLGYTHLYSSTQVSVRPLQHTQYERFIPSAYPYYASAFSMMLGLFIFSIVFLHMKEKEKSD

Compound	tested on	test	system	setting	scale	measurement	value
Cn1c(=O)ccc2ccc(F)c(CCNC[C@H]3CN(c4cnc5c(n4)NC(=O)CO5)C(=O)O3)c21	Shigella spp.	–	–	–	–	MIC90	0.06 µg/mL (≈ 0.128 µM)
CC(C)=CCc1c(-c2ccc(O)cc2O)oc2c3c(cc(O)c2c1=O)OC(C)(C)C=C3	Bovine alphaherpesvirus 1	viral replication	MDBK	–	–	IC50	140 nM
N=C(N)c1ccc(OCCC(CCOc2ccc(C(=N)N)cc2)c2ccccc2)cc1 (stereo not drawn)	Escherichia coli	checkerboard	mcr-1 polymyxin-resistant	unit not given, together with: rifampicin	lower = stronger synergy	FICI	≤ 0.063
CC(C)C[C@H](NC(=O)[C@H](CCN)NC(=O)[C@H](CCN)NC(=O)[C@@H](Cc1ccccc1)NC(=O)[C@H](CC(C)C)NC(=O)[C@H](CCN)NC(=O)[C@H](CCN)NC(=O)[C@@H](CCN)NC(=O)CCSCCOC(=O)c1ccc(C(C)(C)C)cc1)C(N)=O	Acinetobacter calcoaceticus	BHI agar spot plating	–	24 h, 37 °C	–	MBC	32 µM
CCC(CC)COC(=O)[C@H](C)N[P@](=O)(OC[C@H]1O[C@@](C#N)(c2ccc3c(N)ncnn23)[C@H](O)[C@@H]1O)Oc1ccccc1	human coronavirus 229E	viral replication	MRC-5	72 h	–	EC50	71 nM
CC(C)[C@H](NC(=O)[C@H](CCCNC(=N)N)NC(=O)[C@H](Cc1c[nH]c2ccccc12)NC(=O)[C@H](CCCNC(=N)N)NC(=O)[C@H](Cc1c[nH]c2ccccc12)NC(=O)[C@H](Cc1c[nH]c2ccccc12)NC(=O)[C@H](Cc1c[nH]c2ccccc12)NC(=O)[C@H](CCCNC(=N)N)NC(=O)[C@H](Cc1c[nH]c2ccccc12)NC(=O)[C@H](CCCNC(=N)N)NC(=O)CN)C(N)=O	Candida albicans	broth microdilution	CGMCC 2.209, RPMI 1640-MOPS	48 h, 30 °C, together with: NH4Cl 6 µM	–	MIC	8 µM
CCOC(=O)c1nnc2c3ccccc3c3ccccc3c2n1	Schistosoma mansoni	microscopic viability scoring	newly transformed schistosomula	10 µM, 72 h, prescreen	–	viability reduction	9.4%
CCN1CCN(C(=O)N[C@@H](C(=O)N[C@@H]2C(=O)N3[C@@H]2SC(C)(C)[C@@H]3C(=O)O)c2ccccc2)C(=O)C1=O	Escherichia coli	broth microdilution	ATCC 35218, low-level TEM-1	together with: clavulanic acid 6 µg/mL	–	MIC	100 µg/mL
CC(=O)O[C@H]1C[C@]2(O)[C@@H]3CC[C@@H]4C[C@@H](O)CC[C@]4(C)[C@H]3CC[C@]2(C)[C@H]1c1ccc(=O)oc1	Bovine alphaherpesvirus 1	viral replication	MDBK	–	–	IC50	180 nM
CC(=O)O[C@@H]1CC[C@@]2(C)[C@H](CC[C@@H]3[C@@H]2CC[C@]2(C)[C@@H](C4=CC(=O)OC4)CC[C@]32O)C1	Schistosoma mansoni	microscopic viability score	newly transformed schistosomula	10 µM, 72 h	–	viability reduction	100%
COC(=O)N[C@H](C(=O)N1CCC[C@H]1c1ncc(-c2ccc(-c3ccc(-c4cnc([C@@H]5CCCN5C(=O)[C@@H](NC(=O)OC)C(C)C)[nH]4)cc3)cc2)[nH]1)C(C)C	Hepatitis C virus	–	replicon cells	75% effect level, together with: NS5B inhibitor, ratio 2.5:1	–	combination index	0.7
CS(=O)(=O)CCCn1c(Cn2c(=O)n(CC(F)(F)F)c3ccncc32)cc2cc(Cl)ccc21	respiratory syncytial virus	RT-qPCR	hospitalized infants 1-24 months, nasal swab	oral, 9, 6 or 5 mg/kg daily, day 7, high dose by age cohort	relative to: placebo	LS mean difference vs placebo	0.34 log10 copies/mL
CC(C)(C)n1nnnc1C(c1ccc([N+](=O)[O-])cc1)N1CCCc2ccccc21 (stereo not drawn)	Schistosoma mansoni	microscopic viability scoring	newly transformed schistosomula	10 µM, 72 h, prescreen	–	viability reduction	0%
C[C@]12CC[C@@H]3c4ccc(O)cc4CC[C@H]3[C@@H]1CC[C@@H]2O	Arabidopsis thaliana	qRT-PCR, measured: NCED3	–	1 µM, unit not given	relative to: untreated	mRNA level	0.823 and 0.891
[O-][N+]1=C(c2ccc(Cl)cc2)C2=NCCN2c2ccccc21	Fusobacterium nucleatum	–	–	–	–	MIC90	0.125 µg/mL (≈ 0.42 µM)
C[N+]1=C2C=C(N/C=C/c3ccc(O)cc3)C(=O)c3[nH]cc(c32)CC1	Saccharomyces cerevisiae	cell growth, liquid culture	BY4741	100 µM, 24 h	–	inhibition	8.7%
Nc1ncnc2c1ncn2[C@@H]1O[C@@H]2COP(=O)(O)O[C@H]3[C@@H](O)[C@H](n4cnc5c(=O)[nH]cnc54)O[C@@H]3COP(=O)(O)O[C@H]2[C@H]1O	West Nile virus	RNA sequencing, measured: pro-inflammatory cell recruitment R-HSA-9664424	HFF-1 cells	concentration not given, upregulated pathway	relative to: WNV-infected untreated cells	fold enrichment	7.08
CCCCn1nnnc1C(c1ccc(F)cc1)N1CCc2ccccc2C1 (stereo not drawn)	Schistosoma mansoni	microscopic viability scoring	newly transformed schistosomula	10 µM, 72 h, prescreen	–	viability reduction	16.7%

Compound	tested on	test	system	setting	scale	measurement	value
C[C@@H](O[C@H]1OCCN(Cc2n[nH]c(=O)[nH]2)[C@H]1c1ccc(F)cc1)c1cc(C(F)(F)F)cc(C(F)(F)F)c1	Human immunodeficiency virus 1	viral replication	PBMC, CRF01_AE isolate from Thailand, X4, SI	–	–	IC50	4790 nM
C[C@]12CCC(=O)C[C@H]1CC[C@@H]1[C@@H]2CC[C@]2(C)[C@@H](C3=CC(=O)OC3)CC[C@]12O	Schistosoma mansoni	microscopic viability score	newly transformed schistosomula	10 µM, 72 h	–	viability reduction	24.4%
CN[C@H](CC(C)C)C(=O)N[C@H]1C(=O)N[C@@H](CC(N)=O)C(=O)N[C@H]2C(=O)N[C@H]3C(=O)N[C@H](C(=O)N[C@H](C(=O)O)c4cc(O)cc(O)c4-c4cc3ccc4O)[C@H](O)c3ccc(c(Cl)c3)Oc3cc2cc(c3O[C@@H]2O[C@H](CO)[C@@H](O)[C@H](O)[C@H]2O[C@H]2C[C@](C)(N)[C@H](O)[C@H](C)O2)Oc2ccc(cc2Cl)[C@H]1O	Staphylococcus aureus	–	CAAS-2019-CAAS-2019-09 clinical blaZ-resistant isolate, PBS	–	–	MBC	4 µg/mL
N=C(N)NCCC[C@H](NC(=O)CN)C(=O)N[C@@H](Cc1c[nH]c2ccccc12)C(=O)N[C@@H](CCCNC(=N)N)C(=O)N[C@@H](Cc1c[nH]c2ccccc12)C(=O)N[C@@H](Cc1c[nH]c2ccccc12)C(=O)N[C@@H](Cc1c[nH]c2ccccc12)C(=O)N[C@@H](CCCNC(=N)N)C(=O)N[C@@H](Cc1c[nH]c2ccccc12)C(=O)N[C@@H](CCCNC(=N)N)C(=O)N[C@@H](Cc1c[nH]c2ccccc12)C(N)=O	Candida albicans	broth microdilution	SP3903, RPMI 1640-MOPS	48 h, 30 °C	–	MIC	4 µM
C[C@H]1CN(c2n[nH]c3nc(N[C@H]4CC[C@H](NS(=O)(=O)CCC(F)(F)F)CC4)ncc23)CCO1	Dolichyl-diphosphooligosaccharide--protein glycosyltransferase 48 kDa subunit (Homo sapiens, UniProt P39656)	Kinobeads competition, measured: DDOST	–	0.16 µM, unit not given	relative to: vehicle	remaining binding	1.11
Nc1nc2c(ncn2COCCO)c(=O)[nH]1	Herpes simplex virus 2	viral replication, RT-qPCR	BEAS-2B, compound-resistant	–	–	IC50	95400 ± 3750 nM
CC(=O)N[C@H]1[C@@H](O[C@@H]2O[C@H](C[C@@H](O)[C@H]3O[C@@H](n4ccc(=O)[nH]c4=O)[C@H](O)[C@@H]3O)[C@H](O)[C@H](O)[C@H]2NC(=O)/C=C/CCCCCCCCCC(C)C)O[C@H](CO)[C@@H](O)[C@@H]1O	Saccharomyces cerevisiae	alamar blue	BY4742	–	–	MIC50	1.2 ± 0.033 µg/mL (≈ 1.44 µM)
CC(C)(C)c1cc(O)c2cc(Cc3ccccc3)c(=O)oc2c1	Schistosoma mansoni	microscopic viability scoring	newly transformed schistosomula	10 µM, 72 h, prescreen	–	viability reduction	100%
CNCC(=O)N[C@@H](CO)C(=O)N[C@H]1[C@H](O)[C@@H](O)[C@H](n2ccc(N)nc2=O)O[C@@H]1C(N)=O	Potato virus Y	in vivo	–	500 µg/mL	–	inactivation activity	76% and 78%
CCOC(=O)C1=C(CN2CCOCC2)NC(c2nccs2)=NC1c1ccc(F)cc1Br (stereo not drawn)	Hepatitis B virus	measured: HBV pgRNA	chronic HBV infection patients	oral, 240 mg/day, 28 days, together with: ritonavir 100 mg/day	relative to: baseline	change in serum pgRNA	-1.78 log10 copies/mL
Cc1c2c(nn1C)CSCc1cc(n(C)n1)CSc1cc(c3ccccc3c1)OCCCc1c(C(=O)O)n(C)c3c-2c(Cl)ccc13	Staphylococcus aureus	label-free quantitative proteomics, measured: SAOUHSC_01833 protein	SA113	concentration not given	relative to: untreated control	fold change	46.9
CC[C@H](C)[C@H](NC(=O)[C@H](C)NC(=O)[C@H](CCCCN)NC(=O)[C@H](CC(C)C)NC(=O)[C@H](C)NC(=O)[C@@H](NC(=O)[C@H](Cc1c[nH]cn1)NC(=O)[C@H](CC(C)C)NC(=O)[C@@H](NC(=O)[C@@H](NC(=O)[C@H](CCCCN)NC(=O)[C@H](C)NC(=O)[C@H](C)NC(=O)[C@H](CO)NC(=O)[C@H](CCCCN)NC(=O)[C@H](Cc1ccccc1)NC(=O)[C@@H](NC(=O)[C@H](CCCCN)NC(=O)[C@H](CC(C)C)NC(=O)[C@H](Cc1ccccc1)NC(=O)[C@H](CO)NC(=O)[C@H](CCCCN)NC(=O)[C@H](Cc1c[nH]c2ccccc12)NC(=O)[C@H](CCCCN)NC(C)=O)[C@@H](C)O)[C@@H](C)O)C(C)C)[C@@H](C)O)C(=O)N[C@@H](CO)C(=O)N[C@@H](CO)C(N)=O	Klebsiella pneumoniae	–	ATCC 1706	–	–	MBC range	16 µg/mL (≈ 5.45 µM)
CC[C@H](C)[C@@H]1NC(=O)[C@@H]2CCCN2C(=O)[C@H](CC(C)C)NC(=O)[C@H](CC(C)C)NC(=O)CNC(=O)[C@@H](NC(=O)[C@@H](NC(=O)[C@H](CC(=O)O)NC(=O)CNC(=O)[C@@H](NC(=O)[C@H](C)NC(=O)CNC(=O)[C@H](CCCCN)NC(=O)[C@H](CC(C)C)NC(=O)[C@H](CC(C)C)NC(=O)[C@H](CCCCN)NC(=O)CNC(=O)[C@@H](NC(=O)[C@@H](N)CC(C)C)C(C)C)C(C)C)C(C)C)CSSC[C@@H](C(=O)O)NC1=O	–	RNA-seq, measured: Btg2	mouse, traumatic brain injury model, frontal cortex and hippocampus	dose not given	relative to: TBI alone	log2 fold change	-1.6
COc1cnc(OC)n2nc(NS(=O)(=O)c3c(OCC(F)F)cccc3C(F)(F)F)nc12	Arabidopsis thaliana	–	Col-0, seed germination, dark	200 µg/mL, 7 days, 22 °C	–	stem length inhibition	100%
COC(=O)c1ccc(S(=O)(=O)N(Cc2ccc(Cl)cc2)c2cc(C3CCCCC3)nc3ccccc23)cc1	Schistosoma mansoni	microscopic viability scoring	newly transformed schistosomula	10 µM, 72 h, prescreen	–	viability reduction	9.4%
Nc1ncnc2c([C@@H]3N[C@H](CO)[C@@H](O)[C@H]3O)c[nH]c12	Rhinovirus A	viral replication	HRV2 HGP	29.6 µM	–	inhibition	77.5%
O=C(CCCn1c(SCCOc2ccccc2)nc2ccccc21)N1CCCC1	Schistosoma mansoni	microscopic viability scoring	newly transformed schistosomula	10 µM, 72 h, prescreen	–	viability reduction	0%
COc1cc(NC(=O)Cn2ccc3cc(F)c(-c4cnn(C)c4)cc32)cc(OC)c1OC	Plasmodium falciparum	parasite growth, flow cytometry	Dd2-B2 parent	72 h	–	IC90	29.7 nM
